Experimental data of several laboratories.
Numbered parts are unrelated; each lists some results of a single study. Positions count from the first letter of the parent shown.

Study 1
Target: Centromere-binding protein 1, full length, N-terminal tag (CBF1, Saccharomyces cerevisiae, UniProt P17106, residues 1-351)
UniProt P17106, sequence (whole entry, looked up): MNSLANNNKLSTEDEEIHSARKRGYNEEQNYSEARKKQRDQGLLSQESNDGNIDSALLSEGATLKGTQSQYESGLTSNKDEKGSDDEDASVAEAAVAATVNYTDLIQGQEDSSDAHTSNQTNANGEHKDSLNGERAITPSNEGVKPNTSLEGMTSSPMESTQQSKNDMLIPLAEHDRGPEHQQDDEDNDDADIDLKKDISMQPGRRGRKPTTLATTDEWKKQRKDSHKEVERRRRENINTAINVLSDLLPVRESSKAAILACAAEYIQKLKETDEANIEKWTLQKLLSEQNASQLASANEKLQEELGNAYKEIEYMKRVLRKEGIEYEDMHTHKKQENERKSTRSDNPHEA
Method: protein-binding microarray
Form: double-stranded DNA, one strand shown
Medium: in vitro
Tested at: 0.8 µM
Notes: whole 60-bp probe, no competitor
Direction: higher = stronger binding
All sequences stand within: … GTCTTGATTCGCTTGACGCTGCTG
Sequence	fluorescence intensity [a.u.]
GAATGCGGAAGCTATCACGCGATAACTAGGTACTAG	1040
CTAATCTACCTGTTCCACATGGGCGGTTATACCTTC	552
CCTAACTACTATATTAATATCACATAGCTTCGTACA	531
CTAATACGTCTTAATTACGTGAAGCCGACAATTTTC	545
CTAATATTTCATTACATGGTGATGCTTTCTTTTTTC	495
GAATTTTCCTTACTACACGTTTTAAATAGAATATAG	611
CTAAGTCCATCGCACGGCGTGGTGGTGATAAAGTTC	557
CTACCAAAACGGATCATCACCACCATAATGATTTTC	495

Study 2
Target: RNA binding protein fox-1 homolog 2, RRM domain, GST-SBP tag (RBFOX2, Homo sapiens, UniProt O43251-10, residues 100-194)
Method: RNA Bind-n-Seq
Form: RNA
Medium: in vitro
Tested at: 365 nM
Notes: natural RNA segment, single round, ends assumed
Reference: no-protein control
Direction: higher = stronger binding
All sequences stand within: GGGAGUUCUACAGUCCGACGAUC … UGGAAUUCUCGGGUGCCAA
Construct (chain): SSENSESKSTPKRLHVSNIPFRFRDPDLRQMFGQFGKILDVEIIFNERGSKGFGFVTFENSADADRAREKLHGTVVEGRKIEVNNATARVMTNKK
Sequence	RBNS enrichment (R)
UGGAUGAGGCUAGUGACUCUGUGGGUGUCCUGAACAGUGAAGUUCACUGUCUCCAUGUGAUUGUUACAAGCGUUUGUGCAGUUCUACUACAAUGAUAUCUGUAUGUCACU	0.337
UUGACUUGCAAACCAGCCUUUUCUAAUAGGCUAAUAUUGCUGAGGCCUUAAAGGAAAUGGACAAAAAUUAUCCAGAAGGGGUACUUUUCCAUUGUAUCUUUCUAAUAAGG	0.383
CAUCCCUUCCUCCUCUCCUGGAAACAGACAGGGAGAAGUUGAGCAGGUAUCAACUAGGGGAGGAGAGAGGGUCUCCAGUGUUCCCCCCAUAGAGACCAGGAGGGAGAGCC	0.836
CACAGCAUACUAAAUCCUCUGGAGAGAUGGAAGUGGACUAGUCUUAAUUUUACCUUCACAUUAAUUCAAACCGUGCAAGUAACCACGGGGUCCAUCUUUUACAUCUGGUA	0.527
AGUGCUACAAGCCCUCAGGAGCUCAAGAUAGCAGAGUCCUUCUUUCAAAGCCCAGCUUAGUGAGGACUUGGGUCAACUUCAGUAAGCUUCCUCUGAAGCAACUGAAGGCC	0.222
AAGUCAGCCAGACACCUUGUACUGGGCACGCGUCAGACCACAGCCGGCCGUUUCCUUUCUUUAGCCAGCCGUCCUGGUACUGUAGCUUAGGGGUUGAUGGUGGAUGAAAU	0.226
GAAUUGAAUUUGCUCAAAAAAGAUGAAAGGAAAUGCAAACUGUAAAUGUAUAAAUGUAUAUUGUAUUGUAUGUACAUUUUAUAUUCAUAAUAAAGGCAAUCAAACUCUAA	1
UUGUUUCCAAUGUCGGGUUCACUUAAAGGAUUUGACUUACCACCAGAGCAUAGAAAAGCAUGCAAGGAAGACCAGAUGGGCUUAGCAUUGGGAAGACAGAGGGCAAGGAG	10.7

Other studies, line by line
P1: viral docking peptide; KGVKRKLFAEDSS; partner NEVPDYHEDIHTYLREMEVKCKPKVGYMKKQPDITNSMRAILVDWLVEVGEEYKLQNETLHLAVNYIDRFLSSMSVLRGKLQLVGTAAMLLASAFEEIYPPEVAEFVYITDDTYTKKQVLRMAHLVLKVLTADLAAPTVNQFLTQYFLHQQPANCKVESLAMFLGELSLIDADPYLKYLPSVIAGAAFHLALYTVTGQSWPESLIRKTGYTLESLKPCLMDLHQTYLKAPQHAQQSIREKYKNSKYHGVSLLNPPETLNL
Molecule	target	assay	system	setting	scale	measurement	value
P1 V3E	CCNA2, cyclin fold, Cln2 fusion (human)	yeast growth competition, sequencing	yeast	strong parent motif	reference: not given, higher = stronger binding	normalised enrichment score	0.51
PhoQ, residues 284 288 289 292 302 303 TYGVAM	PhoP, residues 12 14 15 18 19 TPLRH (Escherichia coli, UniProt P23836)	Sort-seq, item: YFP reporter	E. coli	PhoQ-PhoP variant library, with: 10 µM Mg2+	reference: high Mg2+ state, higher = stronger signaling	fold induction	2.72
